Results collected from several papers.
“And” joins repeats or separate records; there may be more than shown. Numbers after ± are the reported error.
NR4A1: Nuclear receptor subfamily 4 group A member 1 (NR4A1, Homo sapiens, UniProt P22736)
Sequence of UniProt P22736 (whole entry, looked up): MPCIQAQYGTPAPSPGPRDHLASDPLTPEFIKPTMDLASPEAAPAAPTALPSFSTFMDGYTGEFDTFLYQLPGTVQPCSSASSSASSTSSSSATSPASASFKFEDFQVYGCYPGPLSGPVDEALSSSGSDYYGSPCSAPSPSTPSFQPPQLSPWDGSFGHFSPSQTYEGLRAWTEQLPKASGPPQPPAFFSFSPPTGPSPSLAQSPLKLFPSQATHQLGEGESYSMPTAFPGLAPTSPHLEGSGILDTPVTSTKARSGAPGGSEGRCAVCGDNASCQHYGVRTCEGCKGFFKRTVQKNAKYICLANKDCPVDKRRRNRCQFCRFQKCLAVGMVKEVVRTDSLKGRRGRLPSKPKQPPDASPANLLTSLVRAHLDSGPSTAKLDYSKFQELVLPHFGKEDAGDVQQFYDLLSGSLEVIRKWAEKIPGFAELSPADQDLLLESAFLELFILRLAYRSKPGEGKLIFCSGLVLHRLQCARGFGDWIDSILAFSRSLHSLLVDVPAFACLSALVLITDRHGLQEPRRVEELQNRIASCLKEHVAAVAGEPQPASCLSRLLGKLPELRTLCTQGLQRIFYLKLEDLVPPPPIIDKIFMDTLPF
T1: RNA, 2'-deoxy at 37-40 (Fusobacterium nucleatum); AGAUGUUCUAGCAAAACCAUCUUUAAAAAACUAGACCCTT
T2: ssDNA, single-stranded; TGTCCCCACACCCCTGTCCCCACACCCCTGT
T3: ssDNA, aptamer; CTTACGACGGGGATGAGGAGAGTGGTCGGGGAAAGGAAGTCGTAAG
T4: RNA, tetracycline-neomycin hybrid riboswitch; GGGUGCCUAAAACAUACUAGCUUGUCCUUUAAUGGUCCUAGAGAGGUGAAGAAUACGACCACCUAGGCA
Sequence of UniProt O76090 (whole entry, unmodified, looked up): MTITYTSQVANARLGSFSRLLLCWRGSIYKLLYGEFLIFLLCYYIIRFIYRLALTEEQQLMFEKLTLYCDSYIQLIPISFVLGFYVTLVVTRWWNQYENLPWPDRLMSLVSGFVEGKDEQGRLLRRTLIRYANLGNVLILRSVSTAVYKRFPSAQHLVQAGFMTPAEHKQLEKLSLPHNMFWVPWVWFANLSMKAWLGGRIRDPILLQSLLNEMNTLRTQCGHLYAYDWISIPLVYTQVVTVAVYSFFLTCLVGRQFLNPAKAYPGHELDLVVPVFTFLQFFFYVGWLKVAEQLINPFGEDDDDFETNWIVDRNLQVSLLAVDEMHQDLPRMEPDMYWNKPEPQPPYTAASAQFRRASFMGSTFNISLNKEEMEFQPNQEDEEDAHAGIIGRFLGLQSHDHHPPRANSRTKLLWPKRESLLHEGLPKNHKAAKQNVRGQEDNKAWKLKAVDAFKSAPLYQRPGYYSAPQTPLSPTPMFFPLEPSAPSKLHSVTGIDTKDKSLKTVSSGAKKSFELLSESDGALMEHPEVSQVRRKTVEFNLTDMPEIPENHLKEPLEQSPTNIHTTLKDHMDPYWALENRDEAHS
Sequence of UniProt Q16774 (whole entry, looked up): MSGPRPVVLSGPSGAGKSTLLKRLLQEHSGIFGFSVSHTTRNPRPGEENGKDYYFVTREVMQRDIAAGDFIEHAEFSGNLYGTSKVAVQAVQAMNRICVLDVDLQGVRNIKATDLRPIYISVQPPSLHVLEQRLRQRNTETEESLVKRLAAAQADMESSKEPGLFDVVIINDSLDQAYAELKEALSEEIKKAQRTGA
Sequence of UniProt P05164 (whole entry, looked up): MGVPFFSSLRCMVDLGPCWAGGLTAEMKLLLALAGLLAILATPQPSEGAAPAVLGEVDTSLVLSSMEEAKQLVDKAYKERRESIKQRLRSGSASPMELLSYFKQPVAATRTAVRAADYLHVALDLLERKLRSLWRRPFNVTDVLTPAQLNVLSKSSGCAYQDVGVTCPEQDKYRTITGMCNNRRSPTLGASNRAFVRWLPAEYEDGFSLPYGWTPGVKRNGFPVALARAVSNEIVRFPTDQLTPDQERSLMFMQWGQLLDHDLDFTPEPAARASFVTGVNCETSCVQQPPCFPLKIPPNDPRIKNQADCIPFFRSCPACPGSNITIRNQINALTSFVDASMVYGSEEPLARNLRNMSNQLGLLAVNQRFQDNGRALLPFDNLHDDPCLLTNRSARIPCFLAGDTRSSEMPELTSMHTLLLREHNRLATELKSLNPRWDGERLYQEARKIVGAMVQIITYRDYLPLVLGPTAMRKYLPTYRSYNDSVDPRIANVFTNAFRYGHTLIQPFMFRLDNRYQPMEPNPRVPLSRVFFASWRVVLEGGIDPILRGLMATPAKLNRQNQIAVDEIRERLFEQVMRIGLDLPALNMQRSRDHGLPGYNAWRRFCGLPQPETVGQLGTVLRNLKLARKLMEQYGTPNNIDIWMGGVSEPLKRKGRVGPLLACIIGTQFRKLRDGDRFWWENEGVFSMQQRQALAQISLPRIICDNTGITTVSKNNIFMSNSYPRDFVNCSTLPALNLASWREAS
Sequence of UniProt P51575 (whole entry, unmodified, looked up): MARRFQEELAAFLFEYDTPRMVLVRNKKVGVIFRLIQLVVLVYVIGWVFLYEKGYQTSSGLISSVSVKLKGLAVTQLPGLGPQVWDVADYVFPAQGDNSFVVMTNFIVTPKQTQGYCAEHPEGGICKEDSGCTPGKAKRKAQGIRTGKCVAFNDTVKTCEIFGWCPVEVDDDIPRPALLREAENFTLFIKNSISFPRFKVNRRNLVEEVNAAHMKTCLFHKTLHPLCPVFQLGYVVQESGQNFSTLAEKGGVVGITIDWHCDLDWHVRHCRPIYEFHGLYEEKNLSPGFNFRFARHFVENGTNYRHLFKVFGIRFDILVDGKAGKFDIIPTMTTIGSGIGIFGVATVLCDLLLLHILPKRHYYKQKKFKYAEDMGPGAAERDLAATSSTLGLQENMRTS
Sequence of UniProt Q16832 (whole entry, looked up): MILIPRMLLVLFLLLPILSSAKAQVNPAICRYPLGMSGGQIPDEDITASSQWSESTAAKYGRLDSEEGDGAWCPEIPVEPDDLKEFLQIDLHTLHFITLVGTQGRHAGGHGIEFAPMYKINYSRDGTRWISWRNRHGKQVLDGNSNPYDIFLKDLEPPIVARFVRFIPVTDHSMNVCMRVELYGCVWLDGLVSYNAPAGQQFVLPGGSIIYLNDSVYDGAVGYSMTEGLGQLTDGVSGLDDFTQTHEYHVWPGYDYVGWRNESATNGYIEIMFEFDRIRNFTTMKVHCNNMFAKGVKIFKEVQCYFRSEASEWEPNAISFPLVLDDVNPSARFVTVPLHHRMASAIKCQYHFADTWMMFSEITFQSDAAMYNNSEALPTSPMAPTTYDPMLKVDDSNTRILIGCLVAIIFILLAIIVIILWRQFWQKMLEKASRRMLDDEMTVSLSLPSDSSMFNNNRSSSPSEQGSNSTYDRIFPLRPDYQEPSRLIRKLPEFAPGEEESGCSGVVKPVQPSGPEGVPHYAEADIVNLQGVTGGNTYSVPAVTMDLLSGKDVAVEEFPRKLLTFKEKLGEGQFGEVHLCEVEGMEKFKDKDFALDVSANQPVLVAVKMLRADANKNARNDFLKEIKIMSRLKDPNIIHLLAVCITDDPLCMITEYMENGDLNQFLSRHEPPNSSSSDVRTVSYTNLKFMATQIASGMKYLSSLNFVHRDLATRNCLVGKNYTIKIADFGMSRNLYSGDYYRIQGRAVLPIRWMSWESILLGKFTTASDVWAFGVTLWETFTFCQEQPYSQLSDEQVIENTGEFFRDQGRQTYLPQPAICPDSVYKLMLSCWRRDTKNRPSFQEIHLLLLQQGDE
Sequence of UniProt Q8NER1 (whole entry, looked up): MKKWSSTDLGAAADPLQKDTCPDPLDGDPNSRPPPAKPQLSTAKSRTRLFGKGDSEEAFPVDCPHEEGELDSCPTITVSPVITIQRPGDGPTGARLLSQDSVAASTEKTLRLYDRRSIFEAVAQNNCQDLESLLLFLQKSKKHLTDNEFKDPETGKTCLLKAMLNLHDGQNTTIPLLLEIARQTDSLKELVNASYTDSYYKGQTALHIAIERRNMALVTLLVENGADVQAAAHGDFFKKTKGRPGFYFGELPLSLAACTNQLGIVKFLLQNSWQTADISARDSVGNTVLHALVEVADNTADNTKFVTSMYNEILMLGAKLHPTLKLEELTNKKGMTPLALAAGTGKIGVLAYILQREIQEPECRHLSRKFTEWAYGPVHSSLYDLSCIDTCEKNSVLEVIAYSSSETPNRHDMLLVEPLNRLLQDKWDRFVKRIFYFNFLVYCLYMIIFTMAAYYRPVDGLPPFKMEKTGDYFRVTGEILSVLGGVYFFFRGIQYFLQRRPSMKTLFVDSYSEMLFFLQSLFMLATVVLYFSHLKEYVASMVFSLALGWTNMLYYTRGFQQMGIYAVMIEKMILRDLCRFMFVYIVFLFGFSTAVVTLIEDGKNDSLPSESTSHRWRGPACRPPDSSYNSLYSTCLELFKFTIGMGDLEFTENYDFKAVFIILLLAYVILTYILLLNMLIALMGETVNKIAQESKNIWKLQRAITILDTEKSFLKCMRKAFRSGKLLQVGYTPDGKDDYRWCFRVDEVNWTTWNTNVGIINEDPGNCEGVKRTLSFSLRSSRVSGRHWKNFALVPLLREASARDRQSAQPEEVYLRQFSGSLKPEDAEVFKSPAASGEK
Sequence of UniProt Q92207 (whole entry, looked up): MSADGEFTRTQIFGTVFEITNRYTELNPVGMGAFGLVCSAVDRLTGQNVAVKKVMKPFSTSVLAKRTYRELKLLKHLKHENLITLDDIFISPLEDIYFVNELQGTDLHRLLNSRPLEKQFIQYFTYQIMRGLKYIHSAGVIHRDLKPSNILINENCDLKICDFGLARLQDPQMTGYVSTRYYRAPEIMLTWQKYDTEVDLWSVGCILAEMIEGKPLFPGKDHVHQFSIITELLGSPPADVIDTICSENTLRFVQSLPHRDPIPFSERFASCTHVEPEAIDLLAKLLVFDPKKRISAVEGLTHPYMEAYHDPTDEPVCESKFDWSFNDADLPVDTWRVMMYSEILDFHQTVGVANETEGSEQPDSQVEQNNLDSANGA
Sequence of UniProt P48729 (whole entry, looked up): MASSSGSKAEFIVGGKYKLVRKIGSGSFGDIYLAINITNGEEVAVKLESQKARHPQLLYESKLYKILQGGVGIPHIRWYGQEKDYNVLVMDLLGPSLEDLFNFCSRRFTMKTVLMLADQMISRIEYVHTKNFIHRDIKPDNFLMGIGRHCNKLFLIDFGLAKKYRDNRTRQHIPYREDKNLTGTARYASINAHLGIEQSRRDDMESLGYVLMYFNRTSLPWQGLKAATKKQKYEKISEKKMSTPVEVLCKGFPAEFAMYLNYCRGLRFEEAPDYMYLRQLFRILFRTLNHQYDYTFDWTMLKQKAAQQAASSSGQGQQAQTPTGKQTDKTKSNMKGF

CC1=C(/C=C/C(C)=C/C=C/C(C)=C/C=O)C(C)(C)CCC1 gave a relative koff of 1.83 ± 0.14 (Rhodopsin (RHO, Bos taurus, UniProt P02699, G270L); retinal release, Trp FRET; lipid bicelles; 28 °C, G270L mutant; relative to: wild-type rhodopsin).
For N[C@@H](Cc1c[nH]c2ccccc12)C(=O)O, the ΔG was -7.8 ± 0.1 kcal/mol (Transcription attenuation protein MtrB (mtrB, Halalkalibacterium halodurans, UniProt Q9KCC6); isothermal titration calorimetry; 25 °C, site 1 two-site model).
With Nc1nc2[nH]cnc2c(=O)[nH]1 the Kd was 12 µM (T1, RNA, 2'-deoxy at 37-40 (Fusobacterium nucleatum); MST; apparent).
For [H]/N=C(/N)NCC(=O)O, “normalised MST signal” read 0.013 (SLC6A6 (Homo sapiens, UniProt P31641, Y138A); binding, microscale thermophoresis; 500 µM, room temperature, together with: 50 nM labelled protein; higher = more binding).
Cc1ccc(Cc2nnc(NS(=O)(=O)c3ccc(N)cc3)s2)cc1 gave a Kii of 82 ± 13 µM (Glutathione hydrolase 1 proenzyme, without transmembrane domain (Homo sapiens, UniProt P19440); GSH hydrolysis, uncompetitive inhibitor; 37 °C, binds gamma-glutamyl enzyme, together with: GSH 5-20 µM).
CC(C)OCCn1c(=S)[nH]c(=O)c2[nH]ccc21 — result for “LDL lipid peroxidation”: 21.4% and 32.1% and 27.4% and 60.5% (Myeloperoxidase (MPO, Homo sapiens, UniProt P05164); inhibitor, cholesteryl ester hydroperoxide; 1.111 µM; relative to: control).
O=c1nc(SCc2ccc(C(F)(F)F)cc2)nc(SCc2csc3ccc(Cl)cc23)[nH]1 gave a decatenated DNA of 0% (TOP2A (Homo sapiens, UniProt P11388); decatenation; 0.49 µM, replicate 1).
With O=C(/C=C/c1cccc(F)c1)Nc1cc(-c2ccnc(N3CCC(O)CC3)c2)ccn1 the binding response was 43.5 RU (NR4A1; SPR; 10.0 µM).
NCCOc1cc(C(=O)Nc2cc(OCCN)c3ccccc3n2)nc(C(=O)Nc2cc(OCCN)c3ccccc3n2)c1 — result for binding: “no binding” (T2, ssDNA, single-stranded; laser tweezers; KCl 100 mM).
For Nc1ncnc2c1ncn2[C@@H]1O[C@H](CO)[C@@H](O)[C@H]1O, the Kd was 39.2 µM (T3, ssDNA, aptamer; ITC).
For O=C(O)[C@@H]1CCCN1c1ncnc2[nH]cnc12 (racemic), “log fold enrichment” read 0.0684 (ATP-dependent RNA helicase DDX1 (Homo sapiens, UniProt Q92499); binding, affinity selection mass spectrometry; relative to: other proteins in batch).
N#Cc1ccc2c(-c3ccncc3)c(-c3ccc(F)cc3)nn2c1 — result for “log2 fold change”: -0.671 (Mitogen-activated protein kinase HOG1 (HOG1, Candida albicans, UniProt Q92207); MIB/MS competition binding; Candida albicans cell lysate; 1 µM; relative to: DMSO, lower = stronger binding).
With Nc1ccn([C@H]2C[C@H](O)[C@@H](COP(=O)(O)OP(=O)(O)OP(=O)(O)O)O2)c(=O)n1 the incorporation efficiency was 82% (DNA-directed RNA polymerase subunit beta' / DNA-directed RNA polymerase subunit beta (rpoC/rpoB, Escherichia coli, UniProt P0A8T7+P0A8V2); RNA extension, denaturing gel; Escherichia coli, elongation complex, 6-MI template; 5 µM, 10 min, 25 °C).
The specific binding of Nc1ncnc2c1ncn2[C@@H]1O[C@H](COP(=O)(O)CP(=O)(O)OP(=O)(O)O)[C@@H](O)[C@H]1O is reported as 108 CCPM and 324 CCPM and 134 CCPM (P2X purinoceptor 1 (P2RX1, Homo sapiens, UniProt P51575, K140A); saturation binding; HEK293; 1 nM).
CC(=O)Nc1nc2c(Oc3cc(-c4ccc(C(F)(F)F)cc4)ncn3)cccc2s1: “reversal potential change” -21.2 ± 0.2 mV (TRPV1 (Homo sapiens, UniProt Q8NER1); antagonist, automated patch clamp; HEK-293T expressing hTRPV1; 1 µM, together with: 100 nM capsaicin).
With CC(=O)Nc1ccc(S(=O)(=O)N2CCN(CC(O)COc3ccc4ccccc4c3)CC2)cc1 (stereo not shown) the kon was 8770 ± 56 M⁻¹ s⁻¹ (Sodium channel protein type 8 subunit alpha, C-terminal domain (SCN8A, Homo sapiens, UniProt Q9UQD0); binder, SPR).
O=C1CCC(N2Cc3cc(NC(=O)C4CCCCC4)ccc3C2=O)C(=O)N1 (stereo not shown): “degradation rate constant” 0.86 h⁻¹ (Cereblon/Casein kinase I alpha (CSNK1A1/CRBN, Homo sapiens, UniProt P48729+Q96SW2); degrader, live-cell HiBiT kinetics; HEK293 LgBiT; 10 µM).
For Nc1ccc(C(=O)O)cc1, the current density was -19.7 pA/pF and -23.1 pA/pF and -16.8 pA/pF and -25.9 pA/pF and -6.83 pA/pF and -3.73 pA/pF and -21.3 pA/pF (BEST1, with wild-type BEST1 (Homo sapiens, UniProt O76090, A243T); whole-cell patch clamp; HEK293 co-expressing WT and A243T mutant; concentration not given, membrane potential -80 mV).
CCCC[C@@H]1NC(=O)[C@H](Cc2ccc(O)cc2)NC(=O)[C@@H]2CCCN2C(=O)[C@H](CC(=O)O)NC(=O)[C@H](C)NC(=O)[C@H](Cc2ccccc2)NC(=O)[C@@H]2CSCCC(=O)N3CN(CN(C3)C(=O)CCSC[C@@H](C(=O)N[C@@H](C)C(N)=O)NC1=O)C(=O)CCSC[C@H](NC(C)=O)C(=O)N[C@@H](CC(C)(C)C)C(=O)N1CCC[C@H]1C(=O)N[C@@H](CCC(=O)O)C(=O)N[C@H](CCCCNC(=O)CCc1cn(CCOCCOCCOCCOCCOCCC(=O)NCCCC[C@H]3NC(=O)[C@H](Cc4cccc5ccccc45)NC(=O)[C@@H]4CCCN4C(=O)CCSCCC(=O)N4CN5CN(C4)C(=O)CCSC[C@H](NC3=O)C(=O)N[C@@H](CCSC)C(=O)N[C@@H](CCCCNC(=N)N)C(=O)N[C@@H](CC(=O)O)C(=O)N[C@@H](Cc3c[nH]c4ccccc34)C(=O)N[C@@H](CO)C(=O)N[C@@H]([C@@H](C)O)C(=O)N3CCC[C@H]3C(=O)N3C[C@H](O)C[C@H]3C(=O)N[C@@H](Cc3c[nH]c4ccccc34)C(=O)N[C@H](C(N)=O)CSCCC5=O)nn1)C(=O)N1CCC[C@H]1C(=O)N[C@@H](Cc1ccc(O)cc1)C(=O)N2 has an Emax of 43 fold (Tumor necrosis factor receptor superfamily member 9/Nectin-4 (Homo sapiens, UniProt Q07011+Q96NY8); reporter gene, agonist; HT-1376 coculture with reporter cells; relative to: background).
c1ccc2c(c1)Nc1ccccc1O2: activity “inactive” (DDR2 (Homo sapiens, UniProt Q16832); collagen peptide binding, inhibitor, solid-phase binding; concentration not given, DDR2 ECD 25 nM).
For NC(=O)c1ccc[n+]([C@@H]2O[C@H](COP(=O)([O-])OP(=O)(O)OC[C@H]3O[C@@H](n4cnc5c(NCCNC(=O)CCCCCNC(=O)CCCCCNC(=O)CCCC[C@@H]6SC[C@@H]7NC(=O)N[C@@H]76)ncnc54)[C@H](O)[C@@H]3O)[C@@H](O)[C@H]2O)c1, the apparent Km was 2 µM (PARP14 (Homo sapiens, UniProt Q460N5); enzyme auto-modification, substrate, DELFIA).
COc1cc(F)ccc1-c1ncnc(Nc2cccc(C[S@](C)(=N)=O)c2)n1 gave a remaining activity of 45% (MINK1 (Homo sapiens, UniProt Q8N4C8); kinase activity; 10 µM, together with: 10 µM ATP).
COc1cccc2c(Nc3ccc4[nH]c(C(=O)N/N=C/c5ccc(SC)cc5)cc4c3)cc(C)nc12 has an activation of 1.01 ± 0.06 fold (NR4A1; reporter gene, Gal4 hybrid reporter; 1 µM; relative to: vehicle).
The inhibition of O=C(Nc1cccc2c(=O)cc(-c3nnn[nH]3)oc12)c1ccc(OCCCCc2ccccc2)cc1 is reported as 88.5% (LRRC8A/LRRC8C (Homo sapiens, UniProt Q8IWT6+Q8TDW0, E6A); VRAC current, inhibitor, whole-cell patch clamp; HCT116 LRRC8-/- cells; 10 µM).
For O=C1c2ccccc2CCN1CCCCN1CCN(c2cccc(Cl)c2Cl)CC1, the inhibition was 95.3% (HTR2B (Homo sapiens, UniProt P41595); radioligand binding; concentration not given, together with: [3H]LSD).
For CN(C)[C@@H]1C(=O)C(C(N)=O)=C(O)[C@@]2(O)C(=O)C3=C(O)c4c(O)cccc4[C@@](C)(O)[C@H]3C[C@@H]12, binding read “binds” (T4, RNA, tetracycline-neomycin hybrid riboswitch; in-line probing; 72 h, Mg2+ 10 mM, K+ 100 mM).
CC[C@@H]1[C@H](F)C(=O)N[C@@H]1COc1nccc2cc(C(N)=O)c(OC)cc12 has an inhibition of -0.9% (PRKCI (Homo sapiens, UniProt P41743); ATP probe binding, KiNativ profiling, measured: Lys2 probe site; THP-1 cell lysate; 0.04 mM).
Nc1nc2c(ncn2[C@@H]2O[C@H](COP(=O)(O)O)[C@@H](O)[C@H]2O)c(=O)[nH]1 has a reaction velocity of 0.00988 µM/s and 0.0222 µM/s and 0.0317 µM/s (GUK1 (Homo sapiens, UniProt Q16774); enzyme activity, NADH-coupled; 15.62 µM, together with: KCl 10 mM).
